Experimental data of several laboratories.
Protocols differ between the studies behind these lines. “And” joins repeats or separate records; there may be more than shown. Numbers after ± are the reported error.

| SMILES | test | test system | conditions | scale | measurement | result |
| --- | --- | --- | --- | --- | --- | --- |
| O=C(Nc1cnccc1-c1ccc([18F])nc1)c1ccnc(NC(=O)C2CC2)c1 |  | mice, transgenic, GSK-3β, early-stage, skin | intravenous, dose not given, 120 min |  | SUV | 0.102 |
| Cc1nc(-c2ccncc2)sc1C(=O)NC(C(=O)Nc1cccc(C(N)=O)c1)c1ccc(OCc2ccccc2)cc1 (centres unmarked) |  | PBS | pH 7.4 |  | thermodynamic solubility | < 0.34 µg/mL |
| CN1C(=O)[C@@H](Cc2ccc(O)c(I)c2)NC(=O)CNC(=O)[C@H](Cc2ccc3ccccc3c2)NC(=O)[C@H](CCCNC(=N)N)NC(=O)[C@H]1CCCNC(=O)c1ccc(CNC(=O)CN2CCN(CC(=O)O)CCN(CC(=O)O)CCN(CC(=O)O)CC2)cc1 [lutetium-177 labelled] | 2 | human, extrapolated from mouse, osteogenic cells |  |  | total absorbed dose | 0.048 mGy/MBq |
| CCCC[C@H](OC(C)=O)c1ccccc1C(=O)O |  | beagle dog, both sexes, whole blood | intravenous, 1.5 mg/kg, day 7 |  | AUC(0-inf) | 1900 ng·h/mL |
| CN1CCC[C@]1(C)/C=C/S(=O)(=O)NC(=O)Nc1c2c(cc3c1CC(O)C3)CCC2 (some centres unmarked) |  | human, plasma | oral, 12.5 mg twice daily of parent drug, day 14, metabolite of dosed drug |  | AUC(0-t) | 37700 ng·h/mL |
| C=CC(=O)Nc1cc(Nc2nccc(-c3cn(C)c4ccccc34)n2)c(OC)cc1N(C)CCNC |  | human plasma | 24 h, storage stability, LLOQ sample |  | recovery | 57.7% |
| CCCCN1C(=O)c2cccc3c(NCCCN4CCOCC4)ccc(c23)C1=O |  | Toluene |  |  | molar extinction coefficient | 5320 M⁻¹ cm⁻¹ |
| Cc1cc(C(=O)N[C@@H](CC(=O)NC(C)(C)C)C(=O)NCCNC(=O)c2cccc(-c3cc[nH]n3)c2)no1 |  | mouse, plasma | intravenous, 0.1 mg/kg |  | mean residence time | 0.3 h |
| [123I]c1ccc2nc(-c3ccc(-n4ccnn4)nc3)cn2c1 |  | male Wistar rat, blood | intravenous, 4 MBq, 1 h |  | tracer uptake | 0.121 %ID/g |
| CCCCN1C(=O)c2cccc3c(NCCCCCCCCN4CCOCC4)ccc(c23)C1=O |  | methanol |  |  | molar extinction coefficient | 11700 M⁻¹ cm⁻¹ |
| CN(O)C(=O)CCC(=O)NCCCN(CCCCN(CCCNC(=O)CCC(=O)N(C)O)C(=O)CCC(=O)N(C)O)C(=O)CCC(=O)N(C)O.[89Zr] | radio-TLC | aqueous buffer | 7 d, pH 8.5, 37 °C, 89Zr-labelled complex, together with: DTPA 100-fold excess |  | intact complex | 97 ± 3.5% |
| CCCCN1C(=O)c2cccc3c(NCCN4CCOCC4)ccc(c23)C1=O |  | Methanol |  |  | molar extinction coefficient | 7880 M⁻¹ cm⁻¹ |
| Oc1ccc([C@@H]2Oc3ccc(O)cc3[C@@H]3CCC[C@@H]32)cc1 |  | mouse, plasma | oral, 10 mg/kg |  | AUC(all) | 1.2 µM·h |
| CC(C)C[C@H](NC(=O)[C@@H](CCCCNC(=O)[C@@H](Cc1ccccc1)NC(=O)CCCCCCCNC(=O)CN1CCN(CC(=O)O)CCN(CC(=O)O)CCN(CC(=O)O)CC1)NC(=O)[C@H](Cc1ccc(O)cc1)NC(=O)[C@H](CO)NC(=O)[C@H](Cc1c[nH]c2ccccc12)NC(=O)[C@H](Cc1c[nH]cn1)NC(=O)[C@@H]1CCC(=O)N1)C(=O)N[C@@H](CCCNC(=N)N)C(=O)N1CCC[C@H]1C(=O)NCC(N)=O [indium-111 labelled] | biodistribution | male athymic nude mice, DU-145 prostate cancer xenograft, bone | intravenous, 0.037 MBq, 2 h post-injection |  | tissue uptake | 0.34 ± 0.01 %ID/g |
| Cc1c(C(N)=O)cc(Cl)c2c1O[C@@](C)([C@H]1CC[C@H](N(C)C)CC1)O2 | radiochromatography | human, urine | oral, 200 mg | relative to: dose | urinary excretion | 0.1% and 0.5% and 0.4% and 1.1% |
| C=CC(=O)N1CCCC(n2c(=O)c3ncccc3n(Cc3ccc(Oc4ccccc4)cc3)c2=O)C1 (centres unmarked) |  | male BALB/c mice, plasma | oral, 200 mg/kg, 4 h |  | plasma concentration | 3940 ng/mL and 7610 ng/mL |
| CCn1c(=O)c(-c2cc(NC(=O)Nc3ccccc3)c(F)cc2Br)cc2cnc(N)cc21 |  | human plasma | 4000 ng/mL, -20 °C, 3 cycles, high QC |  | freeze-thaw stability accuracy | -6.3% |
| O=C(Nc1cnccc1-c1ccc([18F])cc1)c1ccnc(NC(=O)C2CC2)c1 | ex vivo gamma counting | GSK-3β transgenic mice, early-stage, adipose tissue | intravenous, 120 min |  | mean SUV | 0.07 |
| C=C(NC(=O)c1csc(-c2nc3c(cc2O)-c2nc(cs2)C(=O)NC(C(C)O)C(=O)NC(=C(C)OC)c2nc(cs2)C(=O)NC2c4nc(cs4)C(=O)NC(COC(=O)c4c5c6c(cccc6n4O)COC(=O)C(OC4CC(C)(O)C(N(C)C)C(C)O4)C2OC5)c2nc-3cs2)n1)C(N)=O (centres unmarked) |  | Sprague-Dawley rat, both sexes, plasma | intravenous infusion, 2 mg/kg single dose |  | Cmax | 2600 ± 625 ng/mL |
| N=C(N)NCCC[C@@H]1NC(=O)[C@H](CO)NC(=O)[C@@H](NC(=O)[C@H](CO)NC(=O)[C@H](CO)NC(=O)[C@H](Cc2c[nH]c3ccccc23)NC(=O)CNC(=O)[C@H](CO)NC(=O)[C@@H](N)Cc2c[nH]c3ccccc23)CSSC[C@@H](C(=O)NCC(=O)O)NC(=O)[C@H](CO)NC1=O |  | patients, plasma | intravenous, 10 mg/kg, thrice weekly, median |  | Tmax | 8.4 min |
| O=C(NS(=O)(=O)c1cccs1)c1cc2ccccc2n1Cc1ccc(Br)c2ccccc12 |  | KM mouse, chronic hyperuricaemia model | dose not given, day 0 |  | body weight | 26 g and 25.2 g and 24.4 g |
| CCCCN1C(=O)c2cccc3c(NCCCCCCCCCCN4CCOCC4)ccc(c23)C1=O |  | DMF |  |  | molar extinction coefficient | 13100 M⁻¹ cm⁻¹ |
| COCC1CN(C2CCN(c3cc(OC)c(Nc4ncc(Br)c(Nc5ccc6c(c5P(C)(C)=O)OCCO6)n4)cc3C)CC2)C1 |  | EGFR-mutant NSCLC patients, plasma | oral, 90 mg multiple doses, geometric mean |  | Cmin | 582 ng/mL |
| N[C@@H](CNC(=O)N[C@@H](CS)C(=O)NCC(=O)O)C(=O)O |  | C57BL/6 mouse | intranasal, dose not given |  | brain-to-plasma AUC ratio | 25.7 ± 5.88 |
| COc1ccc2c(c1)CN(C(=O)CCN1CCC(Cc3ccccc3)CC1)CCS2 |  | paroxysmal AF patients | oral, 540 mg, 90 min | relative to: baseline | maximum QTcB change | 50.8 ms |
| NCCCCCC(=O)N(CCC(=O)O)CC(=O)N(CCC(=O)O)CC(=O)N(CCC(=O)O)CC(=O)N(CCC(=O)O)CC(=O)N(CCC(=O)O)CC(=O)N(CCC(=O)O)CC(=O)N(CCc1ccc(Cl)cc1)CC(=O)N(CCc1ccc(Cl)cc1)CC(=O)N(CCc1ccc(Cl)cc1)CC(=O)N(CCc1ccc(Cl)cc1)CC(=O)N(CCc1ccc(Cl)cc1)CC(=O)N(CCc1ccc(Cl)cc1)CC(N)=O | in situ AFM | HCl solution on mica | pH 2.8, room temperature, 2D phase solubility |  | equilibrium concentration (Ce) | 0.16 µM |
| O=C(CCc1cn([C@@H]2O[C@H](C[18F])[C@@H](O)[C@H](O)[C@H]2O)nn1)Nc1ccc(-c2nnc(-c3ccccn3)nn2)nc1 |  | LS174T xenograft, BALB/c nude mouse, heart | intravenous, 1 h, together with: CC49-TCO, Tz/TCO 1:1 |  | heart uptake | 1.7 ± 0.4 %ID/g |
| O=[N+]([O-])c1cccc(/C=N/Nc2nnc(N/N=C/c3cccc([N+](=O)[O-])c3)c3ccccc23)c1 | haemolysis | human | 10 mM, 45 min |  | haemolysis | 19.4% |
| C/C(N)=N/C(=N\S(=O)(=O)c1ccc(C(F)(F)F)cc1)N1C[C@H](c2ccccc2)C(c2ccc(Cl)cc2)=N1 |  | Sprague-Dawley rat male, plasma | oral, 30 mg/kg |  | oral bioavailability | 76.7% |

For quick reference, copied from above:
| SMILES | test | test system | conditions | scale | measurement | result |
| --- | --- | --- | --- | --- | --- | --- |
| CCCCN1C(=O)c2cccc3c(NCCCCCCCCN4CCOCC4)ccc(c23)C1=O |  | methanol |  |  | molar extinction coefficient | 11700 M⁻¹ cm⁻¹ |
| CN(O)C(=O)CCC(=O)NCCCN(CCCCN(CCCNC(=O)CCC(=O)N(C)O)C(=O)CCC(=O)N(C)O)C(=O)CCC(=O)N(C)O.[89Zr] | radio-TLC | aqueous buffer | 7 d, pH 8.5, 37 °C, 89Zr-labelled complex, together with: DTPA 100-fold excess |  | intact complex | 97 ± 3.5% |
